Published values from different studies.
Numbered parts are unrelated; each lists some results of a single study. Values joined by “and” are separate records of one study, mostly repeats; a detail may differ.
Sequence of UniProt P36896 (whole entry, looked up): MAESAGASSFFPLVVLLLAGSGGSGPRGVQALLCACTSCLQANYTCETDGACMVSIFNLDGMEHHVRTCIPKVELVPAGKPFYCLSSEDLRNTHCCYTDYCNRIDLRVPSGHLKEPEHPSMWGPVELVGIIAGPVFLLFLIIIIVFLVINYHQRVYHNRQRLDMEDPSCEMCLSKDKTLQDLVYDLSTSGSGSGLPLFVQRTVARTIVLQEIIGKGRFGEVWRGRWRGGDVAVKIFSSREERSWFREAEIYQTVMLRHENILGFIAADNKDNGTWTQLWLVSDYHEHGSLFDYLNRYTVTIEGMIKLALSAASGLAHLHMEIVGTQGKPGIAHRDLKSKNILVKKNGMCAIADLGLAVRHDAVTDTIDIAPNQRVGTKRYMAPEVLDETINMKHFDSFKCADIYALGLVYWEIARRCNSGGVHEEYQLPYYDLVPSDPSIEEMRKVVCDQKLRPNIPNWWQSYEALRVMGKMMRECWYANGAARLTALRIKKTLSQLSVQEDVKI
Sequence of UniProt Q9BQI3 (whole entry, looked up): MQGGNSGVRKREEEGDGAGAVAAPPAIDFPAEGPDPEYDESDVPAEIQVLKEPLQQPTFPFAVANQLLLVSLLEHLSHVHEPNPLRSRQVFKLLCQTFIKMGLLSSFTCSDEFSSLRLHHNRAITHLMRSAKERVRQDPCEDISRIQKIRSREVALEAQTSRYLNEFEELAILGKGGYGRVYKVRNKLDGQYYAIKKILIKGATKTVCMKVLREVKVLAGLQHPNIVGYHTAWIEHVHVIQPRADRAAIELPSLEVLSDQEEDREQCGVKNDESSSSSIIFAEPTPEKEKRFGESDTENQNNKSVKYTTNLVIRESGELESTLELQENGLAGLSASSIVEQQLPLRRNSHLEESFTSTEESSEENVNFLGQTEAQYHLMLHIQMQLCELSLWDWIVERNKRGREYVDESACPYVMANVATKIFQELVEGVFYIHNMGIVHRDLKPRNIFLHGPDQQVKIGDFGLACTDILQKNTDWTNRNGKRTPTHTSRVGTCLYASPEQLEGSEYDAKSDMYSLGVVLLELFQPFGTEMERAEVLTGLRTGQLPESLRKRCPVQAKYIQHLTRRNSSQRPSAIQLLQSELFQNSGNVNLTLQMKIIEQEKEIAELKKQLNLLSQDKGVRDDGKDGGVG
Sequence of UniProt P53355 (whole entry, looked up): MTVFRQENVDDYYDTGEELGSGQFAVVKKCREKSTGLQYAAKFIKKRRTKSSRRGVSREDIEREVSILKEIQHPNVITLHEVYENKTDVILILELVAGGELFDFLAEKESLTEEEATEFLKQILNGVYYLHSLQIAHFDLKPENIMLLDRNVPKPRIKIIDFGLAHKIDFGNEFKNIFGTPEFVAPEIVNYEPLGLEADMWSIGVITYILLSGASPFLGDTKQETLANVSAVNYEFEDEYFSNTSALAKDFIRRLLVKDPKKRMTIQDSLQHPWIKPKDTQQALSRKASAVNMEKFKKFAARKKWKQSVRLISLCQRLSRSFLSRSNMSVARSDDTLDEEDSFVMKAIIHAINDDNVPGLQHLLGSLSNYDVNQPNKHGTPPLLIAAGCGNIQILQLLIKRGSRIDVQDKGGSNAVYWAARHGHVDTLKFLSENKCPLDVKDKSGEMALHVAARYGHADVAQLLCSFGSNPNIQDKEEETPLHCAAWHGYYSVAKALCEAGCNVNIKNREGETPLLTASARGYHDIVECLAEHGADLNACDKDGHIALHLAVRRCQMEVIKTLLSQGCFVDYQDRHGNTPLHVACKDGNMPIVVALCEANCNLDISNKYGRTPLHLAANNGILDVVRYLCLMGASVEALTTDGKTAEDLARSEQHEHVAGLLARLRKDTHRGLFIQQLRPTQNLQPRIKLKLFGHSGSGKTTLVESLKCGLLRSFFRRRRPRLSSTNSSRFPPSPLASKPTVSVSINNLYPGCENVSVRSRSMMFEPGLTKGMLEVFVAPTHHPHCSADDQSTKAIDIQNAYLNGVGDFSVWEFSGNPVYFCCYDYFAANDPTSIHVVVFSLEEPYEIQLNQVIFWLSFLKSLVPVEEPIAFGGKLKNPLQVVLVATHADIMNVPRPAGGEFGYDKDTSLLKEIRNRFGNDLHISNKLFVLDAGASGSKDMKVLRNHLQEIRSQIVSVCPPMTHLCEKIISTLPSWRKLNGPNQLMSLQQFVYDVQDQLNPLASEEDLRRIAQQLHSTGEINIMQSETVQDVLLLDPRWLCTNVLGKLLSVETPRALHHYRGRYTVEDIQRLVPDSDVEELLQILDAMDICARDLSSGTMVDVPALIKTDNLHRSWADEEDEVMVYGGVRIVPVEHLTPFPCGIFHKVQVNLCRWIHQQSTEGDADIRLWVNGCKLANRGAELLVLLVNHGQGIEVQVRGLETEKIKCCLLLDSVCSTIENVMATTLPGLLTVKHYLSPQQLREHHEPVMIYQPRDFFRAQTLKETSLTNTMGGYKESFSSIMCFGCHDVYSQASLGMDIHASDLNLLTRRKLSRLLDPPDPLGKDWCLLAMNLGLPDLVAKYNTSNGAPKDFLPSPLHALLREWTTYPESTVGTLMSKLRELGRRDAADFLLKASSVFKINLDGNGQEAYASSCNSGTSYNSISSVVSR
Sequence of UniProt O15530 (whole entry, looked up): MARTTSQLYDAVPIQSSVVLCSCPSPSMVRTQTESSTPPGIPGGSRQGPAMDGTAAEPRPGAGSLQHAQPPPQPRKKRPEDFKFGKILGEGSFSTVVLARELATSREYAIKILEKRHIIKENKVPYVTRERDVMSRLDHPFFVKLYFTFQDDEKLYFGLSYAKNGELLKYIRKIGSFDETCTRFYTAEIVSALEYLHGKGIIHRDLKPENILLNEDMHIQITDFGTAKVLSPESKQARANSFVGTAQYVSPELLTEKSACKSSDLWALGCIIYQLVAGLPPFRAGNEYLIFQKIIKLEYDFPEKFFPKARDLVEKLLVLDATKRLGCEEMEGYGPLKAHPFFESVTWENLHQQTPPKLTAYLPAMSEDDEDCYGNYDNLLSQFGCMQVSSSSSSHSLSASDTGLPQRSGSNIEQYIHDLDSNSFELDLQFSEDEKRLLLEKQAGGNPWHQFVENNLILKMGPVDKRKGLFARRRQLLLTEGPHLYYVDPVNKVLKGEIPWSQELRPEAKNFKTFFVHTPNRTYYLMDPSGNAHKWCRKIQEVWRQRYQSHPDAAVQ
Sequence of UniProt Q00526 (whole entry, looked up): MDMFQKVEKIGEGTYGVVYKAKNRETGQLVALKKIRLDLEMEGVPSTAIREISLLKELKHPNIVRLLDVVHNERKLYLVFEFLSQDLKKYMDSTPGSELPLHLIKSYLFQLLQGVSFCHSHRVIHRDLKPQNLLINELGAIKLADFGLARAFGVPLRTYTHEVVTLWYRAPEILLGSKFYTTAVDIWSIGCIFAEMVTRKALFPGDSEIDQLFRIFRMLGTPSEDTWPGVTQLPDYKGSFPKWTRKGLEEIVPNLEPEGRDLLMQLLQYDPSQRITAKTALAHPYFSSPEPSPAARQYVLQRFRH
Sequence of UniProt Q96NX5 (whole entry, looked up): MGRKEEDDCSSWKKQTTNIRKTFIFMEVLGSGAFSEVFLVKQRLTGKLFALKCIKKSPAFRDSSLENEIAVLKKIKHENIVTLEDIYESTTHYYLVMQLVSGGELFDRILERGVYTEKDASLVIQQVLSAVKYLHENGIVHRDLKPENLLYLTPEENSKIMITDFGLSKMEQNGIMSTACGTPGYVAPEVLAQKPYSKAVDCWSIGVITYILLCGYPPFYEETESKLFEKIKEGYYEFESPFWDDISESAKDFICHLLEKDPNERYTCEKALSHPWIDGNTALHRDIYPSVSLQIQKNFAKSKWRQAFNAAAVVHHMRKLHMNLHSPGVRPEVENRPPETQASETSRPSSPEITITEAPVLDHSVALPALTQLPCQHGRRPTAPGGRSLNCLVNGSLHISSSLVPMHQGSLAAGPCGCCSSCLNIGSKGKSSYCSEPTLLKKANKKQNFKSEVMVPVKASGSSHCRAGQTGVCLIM

Study 1
Structure (SMILES): CN(c1ccnc(CNc2nc(Nc3ccc4c(c3)CC(=O)N4)ncc2C(F)(F)F)n1)S(C)(=O)=O
Effect on: cell-free assay
Technique: competition with immobilised ligand
Tested at: 1 µM
| target | remaining binding [%] |
| --- | --- |
| Cyclin-dependent kinase 3 (CDK3, Homo sapiens, UniProt Q00526) | 90 |
| Phosphatidylinositol 4,5-bisphosphate 3-kinase catalytic subunit alpha isoform (PIK3CA, Homo sapiens, UniProt P42336) | 100 |
| Myosin-IIIa (MYO3A, Homo sapiens, UniProt Q8NEV4) | 100 |
| Misshapen-like kinase 1 (MINK1, Homo sapiens, UniProt Q8N4C8) | 53 |
| 3-phosphoinositide-dependent protein kinase 1 (PDPK1, Homo sapiens, UniProt O15530) | 54 |

Study 2
SMILES: COc1cc(C(=O)N2CCC(N3CCN(C)CC3)CC2)ccc1Nc1ncc2c(n1)N(C)c1ccccc1C(=O)N2C
| tested on | test | test system | setting | inhibition |
| --- | --- | --- | --- | --- |
| PKD2 human | KiNativ profiling | human PBMC | 1 µM, LYS1 site, with: ATP acyl phosphate probe | 11.9% |
|  | inhibitor, KiNativ profiling, refers to: peptide VLGTGAYGkVFLVR | human PBMC lysate | concentration not given, ATP loop site, with: ADP acyl-phosphate probe | 1.7% |
| MAP3K2 and MAP3K3 (mouse) | probe labelling, KiNativ, refers to: DIkGANILR peptide, LYS2 site | brain tissue lysate (mouse) | 1 µM, with: ADP acyl-phosphate probe | -2.1% |
| FYN (mouse) | probe labelling, KiNativ ATP probe | mouse brain lysate | 1 µM, LYS1 labelled site | 0.6% and -8.2% |
| Receptor tyrosine-protein kinase erbB-4 (Erbb4, Mus musculus, UniProt Q61527) | KiNativ profiling | mouse brain lysate | 0.1 µM, LYS1 site, with: ADP acyl phosphate probe | -2.1% |
| OSR1 (human) | probe labelling, KiNativ ATP probe | human PBMC lysate | concentration not given, LYS2 labelled site | 25.3% |
| p38beta human | KiNativ profiling | human PBMC lysate | concentration not given, ATP probe, other site | -21.4% |

Study 3
Target: Tyrosine-protein kinase JAK1 (JAK1, Homo sapiens, UniProt P23458)
Sequence of UniProt P23458 (whole entry, looked up): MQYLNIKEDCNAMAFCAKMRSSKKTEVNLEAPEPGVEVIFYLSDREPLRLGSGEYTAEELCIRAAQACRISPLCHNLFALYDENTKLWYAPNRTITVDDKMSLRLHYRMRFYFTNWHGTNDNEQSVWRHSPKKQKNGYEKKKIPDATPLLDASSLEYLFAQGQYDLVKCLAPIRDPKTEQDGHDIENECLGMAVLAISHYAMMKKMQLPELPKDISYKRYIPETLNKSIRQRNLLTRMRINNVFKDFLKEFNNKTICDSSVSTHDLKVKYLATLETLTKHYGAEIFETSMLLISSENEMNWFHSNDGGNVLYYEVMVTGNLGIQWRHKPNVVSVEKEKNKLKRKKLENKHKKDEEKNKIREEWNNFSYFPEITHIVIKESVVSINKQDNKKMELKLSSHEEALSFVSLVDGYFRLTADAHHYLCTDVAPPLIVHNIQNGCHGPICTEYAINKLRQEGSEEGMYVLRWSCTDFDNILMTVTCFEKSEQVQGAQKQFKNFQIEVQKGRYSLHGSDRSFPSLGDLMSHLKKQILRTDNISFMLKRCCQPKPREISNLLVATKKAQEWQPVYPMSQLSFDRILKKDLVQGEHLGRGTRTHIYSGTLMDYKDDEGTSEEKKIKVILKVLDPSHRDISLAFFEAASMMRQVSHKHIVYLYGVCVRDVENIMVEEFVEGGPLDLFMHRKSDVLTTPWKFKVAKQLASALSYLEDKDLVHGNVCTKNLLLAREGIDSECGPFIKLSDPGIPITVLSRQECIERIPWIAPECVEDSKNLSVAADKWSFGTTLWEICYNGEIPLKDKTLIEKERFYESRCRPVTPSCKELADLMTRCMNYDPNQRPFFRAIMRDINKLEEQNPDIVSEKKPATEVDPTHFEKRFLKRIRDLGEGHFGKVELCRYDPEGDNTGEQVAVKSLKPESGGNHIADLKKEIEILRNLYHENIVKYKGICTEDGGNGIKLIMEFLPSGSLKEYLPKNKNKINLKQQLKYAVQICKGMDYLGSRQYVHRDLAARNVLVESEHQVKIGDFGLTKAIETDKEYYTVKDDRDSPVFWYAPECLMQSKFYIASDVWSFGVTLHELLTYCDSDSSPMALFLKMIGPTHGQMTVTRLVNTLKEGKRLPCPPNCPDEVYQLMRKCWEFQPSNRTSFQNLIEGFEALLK
Effect on: enzyme activity
Action: inhibitor
Tested at: 0.5 µM
Relative to: control
| Structure (SMILES) | remaining activity |
| --- | --- |
| O=C1NC(=O)C(c2cn(CCCO)c3ncccc23)=C1c1cnccn1 | 117% |
| Nc1ccc2ncnc(NCCc3ccc(Oc4ccccc4)cc3)c2c1 | 94.6% |
| CN(C)c1ccc(C=C2C(=O)Nc3ccccc32)cc1 | 105% |
| O=C(CCCc1ccc(-c2ccccc2F)cc1)Nc1ccc(O)cc1 | 98.2% |
| Cc1cccc(-c2[nH]c(C(C)(C)C)nc2-c2ccc3c(c2)OCO3)n1 | 96.1% |
| N#CC(C#N)=C(N)/C(C#N)=C/c1ccc(O)cc1 | 99.4% |
| CCOC(=O)c1c(C)[nH]c(/C=C2\C(=O)Nc3ccccc32)c1C | 97.1% |
| Nc1[nH]nc2nc3ccccc3nc12 | 99.8% |
| CO[C@H]1C[C@@H]2CC[C@@H](C)[C@@](O)(O2)C(=O)C(=O)N2CCCC[C@H]2C(=O)O[C@H]([C@H](C)C[C@@H]2CC[C@@H](O)[C@H](OC)C2)CC(=O)[C@H](C)/C=C(\C)[C@@H](O)[C@@H](OC)C(=O)[C@H](C)C[C@H](C)/C=C/C=C/C=C/1C | 103% |
| COc1ccc(C(=O)Nc2sc3c(c2C(N)=O)CCCC3)cc1OC | 104% |
| COc1ccc(OC)c2c(=S)c3ccccc3[nH]c12 | 102% |
| COc1ccc(CNC(=O)Nc2ncc([N+](=O)[O-])s2)cc1 | 94.2% |
| CNC(=O)c1cc(Oc2ccc(NC(=O)Nc3ccc(Cl)c(C(F)(F)F)c3)cc2)ccn1 | 110% |
| O=C(Nc1cccc(Nc2cc(Nc3cccc(C(F)(F)F)c3)ncn2)c1)C1CC1 | 103% |
| Cn1sc(=O)n(Cc2ccccc2)c1=O | 103% |

Study 4
Structure (SMILES): COc1cc(C(=O)N2CCC(N3CCN(C)CC3)CC2)ccc1Nc1ncc2c(n1)N(C)c1ccccc1C(=O)N2C
Effect on: kinase–CDC37 interaction
| target | action | cells | notes | EC50 |
| --- | --- | --- | --- | --- |
| Death-associated protein kinase 1 (DAPK1, Homo sapiens, UniProt P53355) |  |  | kinome plate 3@F05 | > 10 µM |
| Calcium/calmodulin-dependent protein kinase type 1G (CAMK1G, Homo sapiens, UniProt Q96NX5) |  |  | kinome plate 3@B11 | > 10 µM |
| Eukaryotic translation initiation factor 2-alpha kinase 1 (EIF2AK1, Homo sapiens, UniProt Q9BQI3) |  |  | kinome plate 3@F10 | > 10 µM |
| Activin receptor type-1B (ACVR1B, Homo sapiens, UniProt P36896) | inhibitor | human cells | kinome plate 1@G03 | > 10 µM |
